Measurements from different studies.
Parts stem from different laboratories: compare values within a part only. Positions count from the first letter of the parent shown.

Series 1 — method: RNA Bind-n-Seq; form: RNA; medium: in vitro; concentration: 365 nM; reference: no-protein control; direction: higher = stronger binding
Target: RNA binding protein fox-1 homolog 2, RRM domain, GST-SBP tag (RBFOX2, Homo sapiens, UniProt O43251-10, residues 100-194)
Setting: natural RNA segment, single round, ends assumed
Target sequence (chain): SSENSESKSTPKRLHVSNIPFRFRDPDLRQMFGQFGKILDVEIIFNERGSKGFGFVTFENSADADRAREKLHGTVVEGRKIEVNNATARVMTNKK
Oligonucleotide | RBNS enrichment (R)
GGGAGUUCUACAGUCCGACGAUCUGUAACUUGCAAAAUGCAUAAACAUCCGACAGUUUGAAUUAAUAGUGUUGAUGGAAGAAAUCAUUUUUAAUGUGUACUGUAAAACUUGAAAUACUCAGGAGCUGAGUGAGUGGAAUUCUCGGGUGCCAA | 0.594
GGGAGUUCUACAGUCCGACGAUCUUGCUCUCGAGGCUUGGAGAGAUGUGUGUCCCUCCCUGGCACUCACUUCAGGCCGCAUGGGCAGGAAUGUGGCCUGGGGCUGGCAGGGUUGGCAGGGCUGCCAUCCCAGCUGGAAUUCUCGGGUGCCAA | 0.495
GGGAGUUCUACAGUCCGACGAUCUCCCCCAUUCUGCUGCCUUUGGGACACUGUUUUCGUUAAACUUGGUCUUGGCUGCAUUCUUUUUUUUCCCUCGUGGGGUUCAAAAGAAUAAACAUUUUCUUACUGAUAAAUGGAAUUCUCGGGUGCCAA | 0.781
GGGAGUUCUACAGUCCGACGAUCCUAGGUGGCCAAGGCUUCCUGCAUUGCUUCCCUGUGAGUCCAAGGCCUUCCCCCACCACUGGGCAGAGGCUGGACAGCACGGACUUCUAGAGAGAGCCGCGUUGCCAGUUUGGAAUUCUCGGGUGCCAA | 0.311
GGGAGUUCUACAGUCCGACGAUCUGAGUAGGUAUCUCAGCAGCACACCCGAACAGUAAAGGUGAUCAAUAACGAAACUGUAGUUUUCAGAUUGAAGAAUGAACCUGGAUCACCAAACUAGAUACCGAAAGGGCUGGAAUUCUCGGGUGCCAA | 1.24
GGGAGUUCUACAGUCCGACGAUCCUGCGCUGUGGCUGUCCCUGGACGUGCUGCAGCCCUCCUGUCCCUUCCCCCCAGUCAGUAUUACCCUGUGAAGCCCCUUCCCUCCUUUAUUAUUCAGGAGGGCUGGGGGGUGGAAUUCUCGGGUGCCAA | 0.245
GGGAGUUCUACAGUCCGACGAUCCUUUUCCCAAACGGGAAGAACACAGCACACCCGGCUUGGACCCACUGCAAGCUGCAUCGUGCAACCUCUUUGGUGCCAGUGUGGGCAAGGGCUCAGCCUCUCUGCCCACAUGGAAUUCUCGGGUGCCAA | 1.65
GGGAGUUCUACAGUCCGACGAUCUAAAUGCUGUUGACUGUGCUAUUAACUGCUGCCGUCAGUAAACUCCAAAGAUCUUUUUGUUUUGGCUUUAGUAUCAUAUGUGCUUUUUCUGUAUCCUGAGCGCUCUAUAUUGGAAUUCUCGGGUGCCAA | 1.72

Series 2 — method: RNAcompete; form: RNA; medium: in vitro; concentration: 20 nM; setting: 7-mer, probes averaged, single round; reference: mean of 7-mers; direction: higher = stronger binding
Target: PABPC1L2, full length, GST fusion (mouse, UniProt A0ABA7IW68)
Target sequence (chain): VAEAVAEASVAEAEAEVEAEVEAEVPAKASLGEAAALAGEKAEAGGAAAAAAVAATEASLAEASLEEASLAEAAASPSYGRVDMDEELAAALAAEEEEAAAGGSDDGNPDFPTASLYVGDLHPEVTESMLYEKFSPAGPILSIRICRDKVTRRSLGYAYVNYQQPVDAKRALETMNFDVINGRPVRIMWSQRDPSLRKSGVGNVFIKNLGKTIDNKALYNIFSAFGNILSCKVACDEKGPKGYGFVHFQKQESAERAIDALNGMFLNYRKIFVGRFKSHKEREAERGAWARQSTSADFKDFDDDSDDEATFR
Oligonucleotide | 7-mer Z-score
GUGGUAA | 0.16
UUCGUCU | -0.541
UAUAUGA | -0.0283
GCAUGAU | 0.0406
CCAUUCC | -0.291
UCUGGGC | 0.0623
AUCCGUG | -0.235
CCGAUAC | -0.233

Series 3 — method: protein-binding microarray; form: double-stranded DNA, one strand shown; medium: in vitro; concentration: not given; direction: higher = stronger binding
Target: Transcription factor SOX-2, HMG box (SOX2, Homo sapiens, UniProt P48431, residues 19-118)
UniProt P48431, sequence (19-118, looked up): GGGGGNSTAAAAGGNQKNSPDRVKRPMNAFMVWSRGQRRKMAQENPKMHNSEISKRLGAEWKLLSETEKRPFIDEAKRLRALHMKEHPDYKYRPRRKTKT
Setting: k-mer, scored over probes, only values ≥0.25
Oligonucleotide | E-score
AACAATA | 0.485
AATGGGA | 0.253
ACAATGA | 0.453
TCATTCA | 0.362
AATATTC | 0.256
ATTCTTA | 0.34
AATGAAA | 0.254
GAACAAA | 0.412

Further values, each from its own experiment
Parent: PafA, mature enzyme, eGFP fusion (Elizabethkingia meningoseptica, UniProt Q9KJX5); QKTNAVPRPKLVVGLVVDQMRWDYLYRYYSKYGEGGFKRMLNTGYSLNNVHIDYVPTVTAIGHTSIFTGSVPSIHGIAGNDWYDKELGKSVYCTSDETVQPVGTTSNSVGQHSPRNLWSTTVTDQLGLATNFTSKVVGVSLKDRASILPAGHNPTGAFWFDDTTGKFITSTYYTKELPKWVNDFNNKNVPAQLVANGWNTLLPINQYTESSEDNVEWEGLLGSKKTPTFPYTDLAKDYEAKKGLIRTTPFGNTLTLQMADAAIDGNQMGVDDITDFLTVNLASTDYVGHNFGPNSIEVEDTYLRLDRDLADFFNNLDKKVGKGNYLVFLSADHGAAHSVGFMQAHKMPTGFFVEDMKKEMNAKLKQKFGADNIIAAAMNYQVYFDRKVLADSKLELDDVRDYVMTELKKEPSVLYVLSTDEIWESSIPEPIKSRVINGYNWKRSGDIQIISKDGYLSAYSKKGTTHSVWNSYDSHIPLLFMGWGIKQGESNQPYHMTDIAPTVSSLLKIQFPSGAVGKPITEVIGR
Variant | target | test | system | setting | how to read | measurement | result
T3V | vanadate, free oxyanion | microfluidic competitive inhibition | in vitro, cell-free expressed | not given, derived from inhibition constants, unchanged parent 676 nM | lower = stronger binding | oxyanion analog dissociation constant | 547 nM

For quick reference, copied from above (series 2):
Oligonucleotide | 7-mer Z-score
UUCGUCU | -0.541
UAUAUGA | -0.0283
